Published values gathered from unrelated publications.
Lines come from different studies, so protocols differ. Several values in a cell are separate wells, animals, samples, runs or records. ± gives the spread as reported.

L-valine isopropyl ester ibuprofenate — cumulative permeated amount (pig, abdominal skin; dose not given, 24 h, pH 7.4, 32 °C, donor 70% ethanol): 604.5 ± 4.87 µg/cm2
CC[C@H](C)[C@H](NC(=O)[C@H](CC(C)C)NC(=O)[C@H](Cc1c[nH]c2ccccc12)NC(=O)[C@H](C)NC(=O)[C@@H](NC(=O)[C@H](Cc1ccccc1)NC(=O)[C@H](CC(=O)O)NC(=O)[C@H](CCCNC(=N)N)NC(=O)[C@H](C)NC(=O)[C@H](C)NC(=O)[C@H](CC(C)C)NC(=O)[C@H](C)NC(=O)[C@H](CC(=O)O)NC(=O)[C@H](CC(C)C)NC(=O)[C@@H](NC(=O)[C@@H](NC(=O)[C@H](C)NC(=O)[C@H](CC(C)C)NC(=O)[C@H](CCC(=O)O)NC(=O)[C@H](CO)NC(=O)[C@H](CO)NC(=O)[C@H](Cc1ccccc1)NC(=O)[C@@H](NC(=O)CNC(=O)[C@H](CCC(=O)O)NC(=O)CNC(=O)[C@@H](N)Cc1cnc[nH]1)[C@@H](C)O)[C@@H](C)O)[C@@H](C)CC)[C@@H](C)CC)C(=O)N[C@@H](C)C(=O)N[C@H](C(=O)N[C@@H](CCCCN)C(=O)N[C@H](C(=O)N[C@H](C(=O)N[C@@H](CC(=O)O)C(=O)N[C@@H](CCCCN)C(=O)N[C@@H](CCCCN)C(=O)N[C@@H](CCCCN)C(=O)N[C@@H](CCCCN)C(=O)N[C@@H](CCCCN)C(=O)N[C@@H](CCCCN)C(N)=O)[C@@H](C)O)[C@@H](C)CC)[C@@H](C)O — AUClast (immunoaffinity LC-MS/MS; healthy human subjects, plasma; subcutaneous, 10 mg once weekly, day 36 after 6 doses, steady state, geometric mean): 0.00104 µM·h
O=C1N=C(N2CCOCC2)CN1c1ccc(Cl)cc1 — apparent oral clearance (beagle dog, female, plasma; oral, 30 mg/kg, tablets, fed): 6.58 mL/min/kg
CNc1nc(Nc2ccc(-n3cnc(C)n3)c(OC)c2)nc2c1CC[C@H]2c1ccc(F)cc1 — AUC(0-inf) (human, plasma; oral, 900 mg, single dose, healthy volunteers): 21400 ng·h/mL
CC1(C)CC[N+](C)(CC(=O)OC2CCCCCCCCCCC2)CC1 — microsomal CLint (metabolic stability; male CD-1 mouse, liver microsomes; 1 µM, pH 7.4): 456 µL/min/mg
Cc1nc2cccc(OCC(C)(C)C(=O)NC(C)C)c2c(N)c1C(=O)O — Cmax (Sprague-Dawley rat, female, plasma; intravenous, 1.0 mg/kg, day 1): 2630 ± 680 ng/mL
COC(=O)C[C@](O)(CCCC(C)(C)O)C(=O)O[C@@H]1C(OC)=C[C@]23CCCN2CCc2cc4c(cc2[C@H]13)OCO4 — tissue concentration (CD1 mouse, lung; oral, 1 mg/kg, 24 h, below quantification limit 1.00 ng/mL): not detected
acyl ghrelin (human) — tissue/serum ratio (wild-type mice, whole brain; intravenous, dose not given, 10 min, vascular space corrected): 6.45 µL/g
Cc1cc(-n2c(=O)[nH]c(=O)n(C)c2=O)ccc1Oc1ccc(SC(F)(F)F)cc1 — thermodynamic solubility (shake-flask; polysorbate 80; 37 °C): 11.1 ± 1.29 mg/g
O=C(CCCN1CC=C(n2c(=O)[nH]c3ccccc32)CC1)c1ccc(F)cc1 — QTc change (male Hartley guinea pig, anaesthetized; intravenous infusion, 0.3 mg/kg, 10 min infusion; reference: baseline): 19.1 ± 4.8%
CC(=O)[C@H]1CC[C@H]2[C@@H]3CCC4=CC(=O)CC[C@]4(C)[C@H]3CC[C@]12C — thermodynamic solubility (shake-flask; Captex 355; 37 °C): 36.9 ± 1.15 mg/g
Cc1ccco1 — Km (metabolic activation to acetaldehyde; male Sprague-Dawley rats, pooled liver microsomes; 10 min, high concentrations): 195 µM
COC(=O)c1ccc2c(c1)NC(=O)/C2=C(\Nc1ccc(N(C)C(=O)CN2CCN(C)CC2)cc1)c1ccccc1 — Cmax steady state (human mild liver impairment, plasma; oral, 150 mg twice daily, geometric mean): 75.8 ng/mL
CC(=O)O[C@@]12CO[C@@H]1C[C@H](O)[C@@]1(C)C(=O)[C@H](O)C3=C(C)[C@@H](OC(=O)[C@H](O)[C@@H](NC(=O)OC(C)(C)C)c4ccccc4)C[C@@](O)([C@@H](OC(=O)c4ccccc4)[C@H]21)C3(C)C — stability (HPLC-MS/MS; rat liver homogenate; storage and freeze-thaw): stable
COc1c(OCCCN2CCOCC2)ccc2c1N=C(NC(=O)c1cnc(N)nc1)N1CCN=C21 — AUC(0-25 h) (human patients, plasma; intravenous, 0.4 mg/kg 3 weeks on 1 week off, cycle 1 day 1): 693 ng·h/mL
CCCCC/C=C/C(=O)CCc1ccc(O)c(OC)c1 — recovery (rat, small intestine site 4 contents; oral, dose not given, 4 h, β-glucuronidase treated; reference: ingested amount): 0.34%
Cc1cccc(Nc2ccccc2C(=O)O)c1C — thermodynamic solubility (shake-flask; Captex 355; 37 °C): 2.72 ± 0.04 mg/g
COc1cc2c3c(n(CCCN4CCOCC4)c(=O)c2cc1OC)-c1cc2c(cc1C3=O)OCO2 — urinary excretion (human cancer patients; intravenous, 40 mg/m2/day, 0 to 24 h, day 5; reference: dose): 0.16%
RLQLKL — peptide cleavage (substrate, gel electrophoresis; peptide, mouse, PyMT tumour, PyMT tumour tissue extract; 5 µM, 16 h, 37 °C, 2% extract, 1 mM ZnCl2): > 80% and > 90%
Cc1cccc(C)c1N(CC(=O)Nc1ccc(-c2ncon2)cc1)C(=O)C1CCS(=O)(=O)CC1 — AUClast excess of radioactivity (human; oral, 200 mg; reference: parent AUClast): ~16%
CCOc1ccc(Cc2cc([C@]34OC[C@](CO)(O3)[C@@H](O)[C@H](O)[C@H]4O)ccc2Cl)cc1 — urinary excretion unchanged (healthy human, normal renal function, urine; oral, 15 mg, 0-96 h; reference: dose): 0.821%
C[C@@H](O)CCCCn1c(=O)c2c(ncn2C)n(C)c1=O — hepatic plasma clearance (male Crl:CD-1 mice; intravenous, 50 mg/kg, well-stirred model): 1.22 mL/min
CN[C@H](CC(C)C)C(=O)N[C@H]1C(=O)N[C@@H](CC(N)=O)C(=O)N[C@H]2C(=O)N[C@H]3C(=O)N[C@H](C(=O)N[C@H](C(=O)O)c4cc(O)cc(O)c4-c4cc3ccc4O)[C@H](O)c3ccc(c(Cl)c3)Oc3cc2cc(c3O[C@@H]2O[C@H](CO)[C@@H](O)[C@H](O)[C@H]2O[C@H]2C[C@](C)(N)[C@H](O)[C@H](C)O2)Oc2ccc(cc2Cl)[C@H]1O — time above MIC (pig, vertebral cancellous bone; intravenous infusion, 1000 mg, infusion 100 min, added: MIC 8 µg/mL): 81 min
CCN(CC)C(=S)SSC(=S)N(CC)CC — thermodynamic solubility (shake-flask; polysorbate 80; 37 °C): 55.7 ± 3.32 mg/g
CS(=O)(=O)n1cc2c(n1)CN([C@H]1CO[C@H](c3cc(F)ccc3F)[C@@H](N)C1)C2 — concentration at 168 h (healthy male human, plasma; oral, 400 mg single, fasted, geometric mean): 174 nM
O=C(CCCN1CCC(O)(c2ccc(Cl)cc2)CC1)c1ccc(F)cc1 — thermodynamic solubility (shake-flask; polysorbate 80; 37 °C): 7.06 ± 0.64 mg/g
Oc1ccc2c3c(cnc2c1)-c1ccc(C(F)(F)F)cc1O[C@@H]3c1ccc(OCCN2CC(CF)C2)cc1 — urinary radioactivity excretion (human, healthy female, urine; oral, 400 mg): 0.278%
O=c1c(-c2ccc(O)cc2)coc2cc(O)cc(O)c12 — critical aggregation concentration (dynamic light scattering; 50 mM potassium phosphate; pH 7.0): 150 µM
O=C(CCc1ccccc1)c1cc(F)ccc1OCC(O)CN1CCC(c2ccccc2)CC1 (stereo not shown) — scaled CLint (metabolic stability; female mouse, liver microsomes; 20 µM, pH 7.4): 27.3 mL/min/kg
CC[C@H](C)[C@H](NC(=O)[C@H](CS)NC(=O)[C@H](CCCNC(=N)N)NC(=O)[C@H](CCCNC(=N)N)NC(=O)[C@H](CC(N)=O)NC(=O)[C@H](CCCNC(=N)N)NC(=O)[C@H](CS)NC(=O)[C@@H](NC(=O)[C@@H](NC(=O)[C@@H](NC(=O)[C@H](CS)NC(=O)[C@H](CCCCN)NC(=O)[C@@H](N)CCCNC(=N)N)C(C)C)[C@@H](C)CC)C(C)C)C(=O)N[C@H](C(=O)N[C@@H](CC(C)C)C(=O)N[C@@H](CS)C(=O)N[C@@H](CCCNC(=N)N)C(=O)O)[C@@H](C)CC — two-disulfide form (LC/MS; PBS; 0.1 mg/mL; reference: LC peak area): 100%
O=S1(=O)OC(c2ccc(O)cc2)(c2ccc(O)cc2)c2ccccc21 — Papp A→B (Caco-2; 5 µg/mL, 1 h): 6.1 ×10⁻⁶ cm/s
C/C=C(\C)C(=O)NCC(=O)O — total plasma concentration ratio (human hemodialysis patients, plasma; pre-treatment; reference: hemodialysis over normal subjects): 27
Nc1ncn([C@H]2C[C@H](O)[C@@H](CO)O2)c(=O)n1 — AUC(0-180) (male CD-1 mice, plasma; oral, 167 mg/kg THU + 0.4 mg/kg, day 58): 1.99 µM·h
C/C=C/C=C/C=C\CC/C=C/C(=O)NCC(C)(C)O — recovery (rat, small intestine site 4 contents; oral, dose not given, 4 h, β-glucuronidase treated; reference: ingested amount): 0.04%
Cc1ncnc2c1c(Cl)cn2[C@@H]1O[C@H](CO)[C@@H](O)[C@H]1O — compound remaining (metabolic stability; mouse, liver microsomes; 30 min): 104%
Oc1c(Br)cc(Cl)c2cccnc12 — concentration (male Sprague-Dawley rats, kidney; intravenous, 5 mg/kg, 2 h): 406 ± 77.1 ng/g
OC[C@@H](O)[C@@H](O)[C@H](O)[C@H](O)CO — effective permeability (equilibrium dialysis; cellulose membrane, cell-free; pH 7.4, no Pluronic P85): 133 ± 12 ×10⁻⁶ cm/s
CCCC[C@@H]1NC(=O)[C@@H](NC(=O)[C@H](CCC(=O)O)NC(=O)CNC(=O)CN2CCN(CC(=O)O)CCN(CC(=O)O)CCN(CC(=O)O)CC2)CCCCNC(=O)C[C@@H](C(N)=O)NC(=O)[C@H](C(C)C)NC(=O)[C@@H]2CCCN2C(=O)[C@H](CCCNC(=N)N)NC(=O)CNC(=O)[C@H](Cc2c[nH]c3ccccc23)NC(=O)[C@H](CCCNC(=N)N)NC(=O)[C@@H](Cc2ccccc2)NC(=O)[C@H](Cc2c[nH]cn2)NC(=O)[C@H](CCC(=O)O)NC1=O [indium-111 labelled] — tissue uptake (C57 mice, B16/F10 lung metastatic melanoma, kidneys; intravenous, 0.037 MBq, 2 h): 16.2 ± 0.62 %ID/g
N[C@@H](CC(=O)N1CCn2c(nnc2C(F)(F)F)C1)Cc1cc(F)c(F)cc1F — AUC(0-2 h) (healthy Korean subjects, plasma; oral, 100 mg single dose, ABCB1 G2677T/A GG): 452 ± 196 ng·h/mL
C[C@]12CC[C@@H]3c4ccc(O)cc4CC[C@H]3[C@@H]1C[C@@H](O)[C@@H]2O — minimum serum concentration (GC-MS; breast cancer women on NSAI, serum; vaginal, 0.03 mg daily, 24 h, day 28): 0 ng/mL
Cc1ccc2c(=O)n(-c3ccc(F)cc3)c(CCN3C(=O)c4cccc(OC(C)C)c4C3=O)nc2c1 — logD (shake flask; PBS; pH 7.4): 3.5
COc1ccc(Cl)cc1C(=O)NCCc1ccc(S(=O)(=O)NC(=O)NC2CCCCC2)cc1 — thermodynamic solubility (shake-flask; PEG400; 37 °C): 8.25 ± 0.32 mg/g
Cc1cc(Nc2ncc(Cl)c(Nc3ccccc3S(=O)(=O)C(C)C)n2)c(OC(C)C)cc1C1CCNCC1 — AUC(tau) at steady state (measured: unbound drug; patients, plasma; oral, 750 or 450 mg/day, arithmetic mean): 0.307 µM·h
O=C1C[C@@H](c2ccc(O)cc2)Oc2cc(O)cc(O)c21 — Papp A→B (mass spectrometry; Caco-2; 40 µM, 6 h): 12.6 ×10⁻⁶ cm/s
CCCC[C@H](NC(C)=O)C(=O)N[C@H]1CCC(=O)NC[C@@H](C(=O)N[C@@H](Cc2c[nH]c3ccccc23)C(N)=O)NC(=O)[C@H](CCCNC(=N)N)NC(=O)[C@@H](Cc2ccccc2)NC(=O)[C@H](Cc2c[nH]cn2)NC1=O — Vd/F (healthy human, both sexes, plasma; subcutaneous, 1.0 mg once daily, day 1, geometric mean): 115 L
CC(C)(Oc1ccc(C(=O)c2ccc(Cl)cc2)cc1)C(=O)O — thermodynamic solubility (shake-flask; PEG400; 37 °C): 54.8 ± 2.69 mg/g
CC1=CC(c2ccccc2)=NS(=O)(=O)N1 — log P (plate reader; PVC/DOS polymer film-water; neutral form): 1.1 ± 0.03
COC1=CC(=O)C[C@@H](C)[C@]12Oc1c(Cl)c(OC)cc(OC)c1C2=O — thermodynamic solubility (shake-flask; PEG400; 37 °C): 13.5 ± 0.6 mg/g
O=C1Cc2cc(CCN3CCN(c4nsc5ccccc45)CC3)c(Cl)cc2N1 — QTc change (male Hartley guinea pig, anaesthetized; intravenous infusion, 0.1 mg/kg, 10 min infusion; reference: baseline): 4.9 ± 2%
Cn1c(-c2ccc(C(N)=O)cc2F)nnc1C(C)(C)Oc1c(F)cc(Cl)cc1F — AUC(0-inf) median (young Japanese subjects, plasma; oral, 20 mg single dose, day 1): 2180 ng·h/mL
CN1C(=O)C2(Nc3ccccc3C(=O)N2Cc2ccco2)c2cc(Br)ccc21 (stereo not shown) — logD (shake flask; aqueous buffer; pH 7.4): 3
C[C@@H](c1ccc2nccn2c1)n1nnc2ncc(-c3cnn(C)c3)nc21 — AEs leading to discontinuation (measured: AEs possibly related to any treatment; EGFR-mutant MET-altered NSCLC patients; oral, dose not given, all): 28%
